Assay results collected from several papers.
Compare with care: the assays were run in different laboratories. ± marks the error that the study gave.

SMILES | tested on | test | system | setting | how to read | endpoint | value
C=CC(=O)Nc1cc(Nc2ncc(C(=O)OC(C)C)c(-c3cn(C)c4ccccc34)n2)c(OC)cc1N(C)CCN(C)C |  | item: body weight | tumour-bearing mice | all doses tested |  | tolerability | not toxic
Cc1cccc(Cn2nc(C3CC3)c3c(NC(=O)c4cnc5cc(OCCN6CCN(C)CC6)ccn45)cccc32)n1 |  | item: Constipation | human platinum-resistant ovarian cancer | oral, dose not given, all-causality |  | adverse events incidence | 27.3%
Clc1cc(Cl)c(-c2ccc(Cl)c(Cl)c2Cl)cc1Cl |  |  | fresh water | 20 °C, S100 sampler, 100 µm |  | log K(PDMS-water) | 6.4 ± 0.05
COc1cc2c(Oc3ccc4[nH]c(C)cc4c3F)ccnc2cc1OCC1(N)CC1 |  |  | paediatric recurrent refractory sarcoma | 10 mg |  | grade 1 or 2 abdominal distension | 25%
O=C(Nc1ccccc1)C1CCN(C(=O)Oc2cccnc2)CC1 |  |  | healthy women | oral, 60 mg, 7 days |  | adverse event Dyspnoea | 0%
O=C(O)CCCOc1ccc(F)cc1-c1cc(-c2ccccc2C(F)(F)F)n(-c2ccccc2)n1 |  | item: T-Bil | Crl:CD(SD) rats, female, blood | iv, 25 µg/kg, 1 day |  | blood chemistry | 0.12 ± 0.01 mg/dL
Cc1ccc(F)c2cc(C(=O)N[C@@H]3CCC[C@H](N4CC[C@H](N(C)S(C)(=O)=O)C4)C3)[nH]c12 |  |  | CD1 mouse | oral, 100 mg/kg |  | fraction absorbed | > 1
CNC(=O)c1cc(Oc2ccc(NC(=O)Nc3cc(C(C)(C)C)nn3-c3ccc4ncccc4c3)c(F)c2)ccn1 |  | vision blurred, NCI CTC v3.0 | human patients | oral, 150 mg twice daily, tablet, dose at onset |  | related SAE | 3%
C=CCNc1c(O)cc2c(O)c1C[C@@H](C)C[C@H](OC)[C@H](O)[C@@H](C)/C=C(\C)[C@H](OC(N)=O)[C@@H](OC)/C=C\C=C(/C)C(=O)N2 |  |  | unresectable or metastatic STS, GIST, other | intravenous, 500 mg/m^2 |  | patients with nausea TEAE | 86%
COc1ccc(-c2c(-c3ccc(C#N)c(F)c3)nc(N3CCC(N)CC3)n(C)c2=O)cc1F |  | item: Cholecystitis | human patients | oral, dose not given, dose escalation, NG |  | serious adverse event incidence | 2%
CNc1cc(-c2ccnc(Nc3ccc(N4CCN(C)CC4)c(C(F)(F)F)c3)n2)ccn1 |  |  | zebrafish embryos | 25 µM, 5 d |  | toxicity | 0%
COc1c(O)cc(O)c2c(=O)cc(-c3ccccc3)oc12 |  |  | Sprague Dawley rat, plasma | oral, 3.34 g lyophilized powder/kg, low dose |  | Vz/F | 1870 ± 997 L/kg
CC(C)C[C@@H]1NC(=O)CNC(=O)[C@H](CC(N)=O)NC(=O)[C@H](CCCNC(=N)N)NC(=O)[C@H]([C@@H](C)O)NC(=O)[C@@H]2CSSC[C@@H]3NC(=O)[C@H]([C@@H](C)O)NC(=O)CNC(=O)CNC(=O)[C@H](C(C)C)NC(=O)[C@@H]4CSSC[C@H](NC(=O)[C@H]([C@@H](C)O)NC(=O)[C@H](CSSC[C@H](NC(=O)[C@H](C(C)C)NC(=O)[C@@H]5CCCN5C1=O)C(=O)N[C@@H](CCCCN)C(=O)N[C@@H](CCC(=O)O)C(=O)N[C@@H]([C@@H](C)O)C(=O)N4)NC(=O)CNC(=O)[C@@H]1CCCN1C(=O)[C@H]([C@@H](C)O)NC(=O)[C@H](CC(N)=O)NC3=O)C(=O)N[C@@H](CO)C(=O)N[C@@H](Cc1c[nH]c3ccccc13)C(=O)N1CCC[C@H]1C(=O)N[C@@H](C(C)C)C(=O)N2 |  | HPLC | ammonium bicarbonate | 180 µM, 7 days, pH 9.0, 25 °C, deamidation stability |  | remaining peptide | 88 ± 7%
O=S(=O)([O-])C(F)(F)C(F)(F)C(F)(F)C(F)(F)C(F)(F)C(F)(F)C(F)(F)C(F)(F)F.[K+] |  |  | male C57BL/6J mice, EtOH-fed, plasma | dose not given | relative to: efavirenz and pair-fed | triglyceride level | increased
CC(C)Nc1ccnc(Nc2cccc(-c3cccnc3)c2)n1 |  | item: total bilirubin | mouse, blood | intraperitoneal, 10 mg/kg |  | blood chemistry | 0.21 mg/dL
Cc1ccccc1NC(=O)Nc1ccc(CC(=O)N[C@@H](CCCCNC(=O)/C=C/c2cccnc2)C(=O)N[C@@H](CCCC(=O)O)C(=O)NC2(C(=O)NCCOCCOCCOCCOCC(=O)N[C@@H](CCCCNC(=S)Nc3ccc(CCCN(CCN4CCN(CP(=O)(O)O)CCN(CP(=O)(O)O)CC4)CC(=O)O)cc3)C(N)=O)CCCCC2)cc1 [gallium-68 labelled] |  | shake flask | octanol/PBS | pH 7.4 |  | log D | -1.86 ± 0.02

SMILES | tested on | test | system | setting | how to read | endpoint | value
CC1(C)C(/C=C(\Cl)C(F)(F)F)C1C(=O)OC(C#N)c1cccc(Oc2ccccc2)c1 (stereo not shown) |  |  | pooled human liver cytosol |  |  | CLint | 546 µL/min/mg
O[C@H]1CCCN[C@@H]1CCCn1cnc2c(Cl)c(Cl)ccc21 |  |  | healthy CYP2D6 intermediate metabolizers, plasma | oral, 150 mg multiple doses |  | median Cmax,ss | 0.385 µg/mL
COc1cc2c(cc1OC)CN(CCc1ccc(NC(=O)c3cccc4c(=O)c5cccc(OC)c5[nH]c34)cc1)CC2 |  |  | CD-1 mouse, male, plasma | intraperitoneal, 0.3 mg/kg |  | elimination rate constant | 2.65e-05 s⁻¹
CC(=O)c1c(C)c2cnc(Nc3ccc(C4CCN(CCS(C)(=O)=O)CC4)cn3)nc2n(C2CCCC2)c1=O |  |  | human patients, plasma | oral, 100 mg twice daily, day 21 multiple doses |  | elimination rate constant | 2.78e-05 s⁻¹
CC(C)(O)c1cc(Nc2cc(Oc3cn(C4CC4)nc3C3CCOCC3)ccn2)ccn1 |  | item: Diarrhea | patients with advanced cancer | oral, dose not given |  | treatment-emergent adverse events | 0%
CCN(CCO)CCCC(C)Nc1ccnc2cc(Cl)ccc12 (stereo not shown) |  |  | newly diagnosed glioblastoma patients | oral, 400 mg/dose, grade 4, with: radiotherapy and temozolomide |  | white cell decrease patients | 14%
Clc1cc(Cl)c(-c2c(Cl)cc(Cl)cc2Cl)c(Cl)c1 |  |  | fresh water | 20 °C, S30-1 sampler, 30 µm |  | log K(PDMS-water) | 6.59 ± 0.06
CC(CCc1ccccc1)NC(C)C(O)c1ccc(O)cc1 (stereo not shown) | Plasmodium falciparum |  | GB4 |  |  | IC50 | 3.16 µM
Cc1nc([C@@](C)(CC2CC2)NC(=O)c2cc(OCC(F)(F)F)c(C3CC3)cn2)no1 |  |  | C57BL/6 mice, plasma | intravenous, dose not given |  | dose-normalised AUC(0-inf) | 1410 kg·ng·h/mL/mg
CC(COc1ccccc1)N(CCCl)Cc1ccccc1 (stereo not shown) | Plasmodium falciparum |  | GB4 |  |  | IC50 | 1.58 µM
Clc1ccc(-c2cc(Cl)c(Cl)cc2Cl)cc1Cl |  |  | fresh water | 20 °C, S30-2 sampler, 30 µm |  | log K(PDMS-water) | 6.07 ± 0.04
C[C@]1(CO)Cc2ncn(-c3ccc(C#N)c(Cl)c3)c2C(=O)O1 |  | investigator-assessed | human | 10 mg single dose |  | subjects with drug-related TEAEs | 0%
CO[C@H]1C[C@@H]2CC[C@@H](C)[C@@](O)(O2)C(=O)C(=O)N2CCCC[C@H]2C(=O)O[C@H]([C@H](C)C[C@@H]2CC[C@@H](OC(=O)NCCOCCOCCOCCOCCOCCOCCOCCOCCC(=O)N3CCc4cc(Cn5nc(-c6ccc7oc(N)nc7c6)c6c(N)ncnc65)ccc4C3)[C@H](OC)C2)C[C@@H](O)[C@H](C)/C=C(\C)[C@@H](O)[C@@H](OC)C(=O)[C@H](C)C[C@H](C)/C=C/C=C/C=C/1C |  |  | patients with advanced solid tumours | intravenous, 12 mg weekly, grade 3 or higher |  | dyspnoea incidence | 8.3%
CN1CC[C@@H](c2c(O)cc(O)c3c(=O)cc(-c4ccc(C(F)(F)F)cc4Cl)oc23)[C@@H]1CO |  | item: Chills | relapsed or refractory haematological malignancies | oral, dose not given, all arms |  | patients with adverse event | 10%
C[C@@H](O)[C@@H]1NC(=O)[C@H](CCCCN)NC(=O)[C@@H](Cc2c[nH]c3ccccc23)NC(=O)[C@H](Cc2ccccc2)NC(=O)[C@@H](NC(=O)[C@H](N)Cc2ccccc2)CSSC[C@@H](C(=O)N[C@H](CO)[C@@H](C)O)NC1=O |  | population PK model | human, typical 75 kg | dose not given, weight exponent 1 fixed |  | volume of distribution | 5.98 L

For quick reference, copied from above:
SMILES | tested on | test | system | setting | how to read | endpoint | value
CNc1cc(-c2ccnc(Nc3ccc(N4CCN(C)CC4)c(C(F)(F)F)c3)n2)ccn1 |  |  | zebrafish embryos | 25 µM, 5 d |  | toxicity | 0%
COc1c(O)cc(O)c2c(=O)cc(-c3ccccc3)oc12 |  |  | Sprague Dawley rat, plasma | oral, 3.34 g lyophilized powder/kg, low dose |  | Vz/F | 1870 ± 997 L/kg
CC(C)C[C@@H]1NC(=O)CNC(=O)[C@H](CC(N)=O)NC(=O)[C@H](CCCNC(=N)N)NC(=O)[C@H]([C@@H](C)O)NC(=O)[C@@H]2CSSC[C@@H]3NC(=O)[C@H]([C@@H](C)O)NC(=O)CNC(=O)CNC(=O)[C@H](C(C)C)NC(=O)[C@@H]4CSSC[C@H](NC(=O)[C@H]([C@@H](C)O)NC(=O)[C@H](CSSC[C@H](NC(=O)[C@H](C(C)C)NC(=O)[C@@H]5CCCN5C1=O)C(=O)N[C@@H](CCCCN)C(=O)N[C@@H](CCC(=O)O)C(=O)N[C@@H]([C@@H](C)O)C(=O)N4)NC(=O)CNC(=O)[C@@H]1CCCN1C(=O)[C@H]([C@@H](C)O)NC(=O)[C@H](CC(N)=O)NC3=O)C(=O)N[C@@H](CO)C(=O)N[C@@H](Cc1c[nH]c3ccccc13)C(=O)N1CCC[C@H]1C(=O)N[C@@H](C(C)C)C(=O)N2 |  | HPLC | ammonium bicarbonate | 180 µM, 7 days, pH 9.0, 25 °C, deamidation stability |  | remaining peptide | 88 ± 7%
O=S(=O)([O-])C(F)(F)C(F)(F)C(F)(F)C(F)(F)C(F)(F)C(F)(F)C(F)(F)C(F)(F)F.[K+] |  |  | male C57BL/6J mice, EtOH-fed, plasma | dose not given | relative to: efavirenz and pair-fed | triglyceride level | increased
